{"data": "Literature values that unrelated publications cite", "SLC6A4": "Sodium-dependent serotonin transporter (SLC6A4, Homo sapiens, UniProt P31645)", "PA endonuclease domain": "Polymerase acidic protein, endonuclease domain (PA, Influenza A virus, UniProt C3W5S0)", "Slc6a3": "Sodium-dependent dopamine transporter (Slc6a3, Rattus norvegicus, UniProt P23977)", "note": "± marks the error that the study gave.", "UniProt P31645, sequence (whole entry, looked up)": "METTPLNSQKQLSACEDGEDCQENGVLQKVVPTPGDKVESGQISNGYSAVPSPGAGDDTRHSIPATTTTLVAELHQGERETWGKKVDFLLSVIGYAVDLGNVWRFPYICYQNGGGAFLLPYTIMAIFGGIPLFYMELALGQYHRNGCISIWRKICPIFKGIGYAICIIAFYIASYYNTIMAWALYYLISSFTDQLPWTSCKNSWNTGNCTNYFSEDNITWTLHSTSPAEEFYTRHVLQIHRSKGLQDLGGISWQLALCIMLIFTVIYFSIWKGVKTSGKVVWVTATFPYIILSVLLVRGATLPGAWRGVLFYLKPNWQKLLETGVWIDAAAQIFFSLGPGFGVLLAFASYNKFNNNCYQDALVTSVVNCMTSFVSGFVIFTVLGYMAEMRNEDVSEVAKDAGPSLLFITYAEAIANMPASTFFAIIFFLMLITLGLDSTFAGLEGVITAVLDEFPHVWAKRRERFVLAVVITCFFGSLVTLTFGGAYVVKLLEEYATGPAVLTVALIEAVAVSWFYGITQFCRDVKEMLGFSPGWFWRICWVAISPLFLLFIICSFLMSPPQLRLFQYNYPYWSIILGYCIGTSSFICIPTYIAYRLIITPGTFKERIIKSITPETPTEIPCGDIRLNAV", "UniProt P23977, sequence (whole entry, looked up)": "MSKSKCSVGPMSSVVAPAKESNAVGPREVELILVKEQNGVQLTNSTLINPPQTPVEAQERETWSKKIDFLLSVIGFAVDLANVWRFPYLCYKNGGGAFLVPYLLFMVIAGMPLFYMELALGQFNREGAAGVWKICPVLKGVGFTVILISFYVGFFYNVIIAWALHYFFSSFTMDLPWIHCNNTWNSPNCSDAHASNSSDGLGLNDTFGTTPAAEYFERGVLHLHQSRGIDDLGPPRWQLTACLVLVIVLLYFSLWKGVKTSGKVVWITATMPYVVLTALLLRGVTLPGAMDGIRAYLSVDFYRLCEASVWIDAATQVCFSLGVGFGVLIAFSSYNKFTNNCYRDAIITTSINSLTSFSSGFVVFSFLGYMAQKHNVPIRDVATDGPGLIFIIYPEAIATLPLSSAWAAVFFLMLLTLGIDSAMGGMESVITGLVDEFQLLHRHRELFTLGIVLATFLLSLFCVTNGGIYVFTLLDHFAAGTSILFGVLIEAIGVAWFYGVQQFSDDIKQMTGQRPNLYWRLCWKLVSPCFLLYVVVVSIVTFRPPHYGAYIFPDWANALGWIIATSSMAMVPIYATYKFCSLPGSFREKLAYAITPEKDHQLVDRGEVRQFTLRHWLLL", "UniProt P41143, sequence (whole entry, looked up)": "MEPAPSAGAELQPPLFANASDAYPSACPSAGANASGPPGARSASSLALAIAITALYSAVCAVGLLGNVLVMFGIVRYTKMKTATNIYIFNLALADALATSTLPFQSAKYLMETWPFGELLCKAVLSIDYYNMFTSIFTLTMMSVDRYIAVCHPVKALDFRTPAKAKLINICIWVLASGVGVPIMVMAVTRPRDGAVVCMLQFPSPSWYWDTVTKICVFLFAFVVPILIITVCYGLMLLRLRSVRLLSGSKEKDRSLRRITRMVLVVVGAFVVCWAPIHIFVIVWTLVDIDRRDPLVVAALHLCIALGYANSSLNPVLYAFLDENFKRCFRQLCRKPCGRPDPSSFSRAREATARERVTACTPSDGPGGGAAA", "UniProt P31652, sequence (whole entry, looked up)": "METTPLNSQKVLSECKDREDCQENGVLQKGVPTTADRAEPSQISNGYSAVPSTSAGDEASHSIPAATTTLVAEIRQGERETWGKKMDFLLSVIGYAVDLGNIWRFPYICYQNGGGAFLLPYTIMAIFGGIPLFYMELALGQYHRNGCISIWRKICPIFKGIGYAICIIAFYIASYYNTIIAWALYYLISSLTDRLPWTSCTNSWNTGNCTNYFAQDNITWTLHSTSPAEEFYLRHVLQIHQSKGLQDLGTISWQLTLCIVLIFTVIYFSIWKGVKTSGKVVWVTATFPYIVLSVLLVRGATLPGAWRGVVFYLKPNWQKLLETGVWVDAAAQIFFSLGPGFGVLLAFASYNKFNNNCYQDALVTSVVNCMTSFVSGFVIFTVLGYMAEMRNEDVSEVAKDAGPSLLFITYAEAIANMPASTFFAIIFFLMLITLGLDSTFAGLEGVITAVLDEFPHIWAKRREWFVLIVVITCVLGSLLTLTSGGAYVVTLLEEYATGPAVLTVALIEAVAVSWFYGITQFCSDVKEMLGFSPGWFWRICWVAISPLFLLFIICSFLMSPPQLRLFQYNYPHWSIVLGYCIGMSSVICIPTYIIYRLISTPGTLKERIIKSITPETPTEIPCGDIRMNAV", "UniProt P35367, sequence (whole entry, looked up)": "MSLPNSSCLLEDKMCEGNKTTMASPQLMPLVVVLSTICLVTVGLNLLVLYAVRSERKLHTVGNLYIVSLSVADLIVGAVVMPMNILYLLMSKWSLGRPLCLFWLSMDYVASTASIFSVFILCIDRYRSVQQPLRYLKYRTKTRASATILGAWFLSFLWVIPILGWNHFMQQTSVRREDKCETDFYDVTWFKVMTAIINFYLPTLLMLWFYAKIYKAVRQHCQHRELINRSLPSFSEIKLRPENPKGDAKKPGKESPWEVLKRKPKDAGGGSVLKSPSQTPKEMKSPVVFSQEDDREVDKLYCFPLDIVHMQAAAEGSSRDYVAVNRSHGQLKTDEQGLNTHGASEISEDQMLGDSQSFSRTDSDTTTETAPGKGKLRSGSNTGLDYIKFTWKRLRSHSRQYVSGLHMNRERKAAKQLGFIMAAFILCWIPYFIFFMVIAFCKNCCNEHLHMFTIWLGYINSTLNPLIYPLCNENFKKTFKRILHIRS"}
{"SMILES": "CCCC(C(=O)c1ccc2c(c1)OCO2)N1CCCC1 (stereo not shown)", "target": "Transporter (Slc6a2, Rattus norvegicus, UniProt Q63380)", "test": "uptake", "system": "rat brain synaptosomes", "quantity": "IC50", "result": "0.026 ± 0.008 µM"}
{"SMILES": "CCCC(NC)C(=O)c1ccccc1 (stereo not shown)", "target": "SLC6A4", "test": "[3H]serotonin uptake, inhibitor", "system": "HEK293 expressing SLC6A4", "quantity": "IC50", "result": "9 ± 2.3 µM"}
{"SMILES": "N#Cc1ccc(-c2cc(O)c(=O)[nH]c2-c2ccc(F)cc2)cc1", "target": "PA endonuclease domain", "test": "inhibitor", "quantity": "IC50", "result": "0.136 µM"}
{"SMILES": "C[C@]12CC[C@@H](O)C[C@@H]1CC[C@@H]1[C@@H]2CC[C@]2(C)C(=O)CC[C@@H]12", "target": "GABAA receptor picrotoxin site, rat", "test": "binding", "system": "rat brain membranes", "quantity": "IC50", "result": "0.414 ± 0.127 µM"}
{"SMILES": "C[C@]12CCC(=O)CC1=CC[C@@H]1[C@@H]2CC[C@]2(C)C(=O)CC[C@@H]12", "target": "ketosteroid isomerase Y14F", "test": "substrate", "setting": "pH 7.0, 3.3 % methanol", "quantity": "kcat", "result": "13.3 ± 0.6 s⁻¹"}
{"SMILES": "CNC(C)C(=O)c1ccc(C)cc1 (stereo not shown)", "target": "Slc6a3", "quantity": "IC50", "result": "0.762 ± 0.079 µM"}
{"SMILES": "C=CCN(CC=C)CCc1c[nH]c2ccccc12", "target": "Histamine H1 receptor (HRH1, Homo sapiens, UniProt P35367)", "test": "binding", "system": "cloned human receptor", "setting": "together with: [3H]pyrilamine", "quantity": "Ki", "result": "0.127 µM"}
{"SMILES": "CNC(C)C(=O)c1ccc2c(c1)OCO2 (stereo not shown)", "target": "Sodium-dependent serotonin transporter (Slc6a4, Rattus norvegicus, UniProt P31652)", "quantity": "IC50", "result": "1.02 ± 0.059 µM"}
{"SMILES": "CNC1(c2ccccc2Cl)CCCCC1=O (racemic)", "target": "α3β4 nicotinic acetylcholine receptor", "test": "non-competitive inhibitor", "quantity": "IC50", "result": "9.5 µM"}
{"SMILES": "C=CCN(CC=C)CCc1c[nH]c2ccc(OC)cc12", "target": "Delta-type opioid receptor (OPRD1, Homo sapiens, UniProt P41143)", "quantity": "Ki", "result": "> 10 µM"}
{"SMILES": "O=c1[nH]c(-c2ccc(-c3nnn[nH]3)cc2)c(-c2ccc(F)cc2)cc1O", "target": "PA endonuclease domain", "test": "inhibitor", "quantity": "IC50", "result": "0.023 µM"}
{"SMILES": "Oc1c(Cl)cc(Cl)c2cccnc12", "target": "Replicase polyprotein 1ab, papain-like protease (rep, Severe acute respiratory syndrome coronavirus 2, UniProt P0DTD1)", "test": "PLpro inhibition, inhibitor", "setting": "ISG15 binding", "quantity": "IC50", "result": "< 10 µM"}
{"SMILES": "COC(=O)C1=C(C)NC(C)=C(C(=O)OC(C)(C)CN(C)CCC(c2ccccc2)c2ccccc2)C1c1cccc([N+](=O)[O-])c1 (stereo not shown)", "target": "Replicase polyprotein 1ab, main protease (rep, Severe acute respiratory syndrome coronavirus 2, UniProt P0DTD1)", "test": "inhibitor", "setting": "literature value", "quantity": "IC50", "result": "16.2 µM"}
{"SMILES": "Cc1ccc(C(=O)C(C)NC2CC2)cc1Cl (stereo not shown)", "target": "Slc6a3", "test": "dopamine uptake, inhibitor", "system": "rat brain synaptosomes", "quantity": "IC50", "result": "0.592 ± 0.031 µM"}
{"SMILES": "O=[P@]1(S)OC[C@H]2O[C@@H](n3cnc4cc(Cl)c(Cl)cc43)[C@H](O)[C@@H]2O1", "target": "PDE1B", "test": "cyclic nucleotide hydrolysis, substrate or inhibitor, isothermal titration calorimetry", "quantity": "Km or Ki", "result": "2.25 µM"}
{"SMILES": "CCCC(NC)C(=O)c1ccc2c(c1)OCO2 (stereo not shown)", "target": "SLC6A4", "test": "[3H]serotonin uptake, inhibitor", "system": "HEK293 expressing SLC6A4", "quantity": "IC50", "result": "0.81 ± 0.14 µM"}
